Assay results pooled from the literature.
Lines come from different studies, so protocols differ. Several values in a cell are separate wells, animals, samples, runs or records.
Target: Ephrin type-B receptor 4 (EPHB4, Homo sapiens, UniProt P54760)
One construct used (P54760 16-987): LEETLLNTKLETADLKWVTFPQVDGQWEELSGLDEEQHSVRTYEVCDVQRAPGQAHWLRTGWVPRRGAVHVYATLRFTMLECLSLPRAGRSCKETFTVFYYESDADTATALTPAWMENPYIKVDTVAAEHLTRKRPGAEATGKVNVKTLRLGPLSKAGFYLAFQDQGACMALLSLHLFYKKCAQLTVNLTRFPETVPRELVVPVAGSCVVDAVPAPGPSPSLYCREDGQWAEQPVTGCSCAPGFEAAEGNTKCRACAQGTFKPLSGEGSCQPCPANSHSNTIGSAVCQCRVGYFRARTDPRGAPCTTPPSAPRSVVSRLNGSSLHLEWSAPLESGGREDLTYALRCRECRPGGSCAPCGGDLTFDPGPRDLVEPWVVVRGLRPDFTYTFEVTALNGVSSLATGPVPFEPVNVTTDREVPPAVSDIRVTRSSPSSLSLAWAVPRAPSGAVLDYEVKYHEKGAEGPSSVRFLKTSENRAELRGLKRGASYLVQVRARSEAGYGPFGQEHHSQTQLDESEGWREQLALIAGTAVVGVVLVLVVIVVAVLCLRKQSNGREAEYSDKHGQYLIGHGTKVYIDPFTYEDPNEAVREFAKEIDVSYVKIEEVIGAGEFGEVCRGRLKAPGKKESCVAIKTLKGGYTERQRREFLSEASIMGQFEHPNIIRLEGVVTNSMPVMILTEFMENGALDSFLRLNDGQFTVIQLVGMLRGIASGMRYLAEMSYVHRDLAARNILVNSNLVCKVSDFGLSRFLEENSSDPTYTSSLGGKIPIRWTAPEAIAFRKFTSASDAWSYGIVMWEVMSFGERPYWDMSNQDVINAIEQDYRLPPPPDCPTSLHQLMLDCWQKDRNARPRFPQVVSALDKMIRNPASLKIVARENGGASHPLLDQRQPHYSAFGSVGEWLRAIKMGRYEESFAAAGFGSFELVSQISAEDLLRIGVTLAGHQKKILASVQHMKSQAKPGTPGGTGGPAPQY

With `CN1CC[C@@H](COc2cnc(C#N)cc2-c2ccn3nc(NC(=O)C4CC4)cc3c2)C1` the inhibition was 5% (enzyme activity, inhibitor; 1 µM).
The remaining activity of `O=c1c(-c2ccc(Cl)c(CN3CCOCC3)c2)coc2cc(O)ccc12` is reported as 89% (enzyme activity, inhibitor; 1 µM).
`COc1ccc(O)cc1-c1c[nH]c2ncc(-c3cncc(C(=O)N(C)C)c3)cc12` has an inhibition of 4.69% (binding, competition with immobilised ligand; 0.2 µM).
For `NC(=O)[C@@H](O)C[C@H]1CCc2sc3ncnc(O[C@H]4CC[C@H](N5CCOCC5)CC4)c3c21`, the inhibition was 32% (enzyme activity, inhibitor; 10 µM).
The inhibition of `C=CC(=O)Nc1cccc(-c2cnc3[nH]cc(C(=O)NC(C)(C)C)c3n2)c1` is reported as 0% and -6% (kinase activity; 0.1 µM).
`CCN1CCN(Cc2ccc(NC(=O)c3ccc(C)c(NC(=O)c4cncc(-c5cccs5)c4)c3)cc2C(F)(F)F)CC1` gave a remaining binding of 13% (binding, competition with immobilised ligand; 1 µM).
With `Nc1ncc2c(n1)-c1c([nH]c3ccc(C4=CCOCC4)cc13)CCC2` the remaining binding was 84% (binding, competition with immobilised ligand; 1 µM).
`O=C(Nc1ccc(Oc2ncnc3[nH]cc(-c4ccccc4)c23)c(F)c1)c1c2n(n(-c3cc(F)ccc3F)c1=O)CCCC2` has an inhibition of 19% (enzyme activity, inhibitor; 0.5 µM).
The inhibition of `C=CC(=O)Nc1cc(-c2nn(C3CCN(CCNC(=O)[C@H](C)CCC45CC6CC(CC(C6)C4)C5)CC3)c3ncnc(N)c23)ccc1Oc1ccccc1` is reported as 16.4% (inhibitor, KiNativ profiling; biochemical; 2 µM).
`O=C(Cc1ccc(OCc2ccccc2)cc1)NC1(C(=O)O)CCN(C(=O)c2ccc(-c3cccc(Cl)c3)cc2)CC1` — result for “activity vs control”: 109% (enzyme activity, inhibitor; 10 µM).
`C=CC(=O)N1CCCC(n2c(=O)c3ncccc3n(Cc3ccc(Oc4ccccc4)cc3)c2=O)C1` (stereo not shown) gave a remaining binding of 100% (cell-free assay, competition with immobilised ligand; 1 µM).
`Cc1cccc(O[C@H]2CCC[C@@H](C(C)CNCc3ccncc3)C2)c1` (relative stereo) has an inhibition of -3% (cell-free assay; 1 µM).
`COc1ccc(NC(=O)Nc2ccc3c(c2)C(=O)N(C(C)CO)CC(C)C(CN(C)Cc2ccc4c(c2)OCO4)O3)cc1` (stereo not shown) has a remaining activity of 99% (kinase activity, KinaseProfiler; 0.03 µM, species human; reference: control).

For quick reference, copied from above:
The remaining activity of `O=c1c(-c2ccc(Cl)c(CN3CCOCC3)c2)coc2cc(O)ccc12` is reported as 89% (enzyme activity, inhibitor; 1 µM).
